Measurements of several laboratories.
Numbered parts are unrelated; each lists some results of a single study.
Sequence of UniProt Q9NWZ3 (whole entry, looked up): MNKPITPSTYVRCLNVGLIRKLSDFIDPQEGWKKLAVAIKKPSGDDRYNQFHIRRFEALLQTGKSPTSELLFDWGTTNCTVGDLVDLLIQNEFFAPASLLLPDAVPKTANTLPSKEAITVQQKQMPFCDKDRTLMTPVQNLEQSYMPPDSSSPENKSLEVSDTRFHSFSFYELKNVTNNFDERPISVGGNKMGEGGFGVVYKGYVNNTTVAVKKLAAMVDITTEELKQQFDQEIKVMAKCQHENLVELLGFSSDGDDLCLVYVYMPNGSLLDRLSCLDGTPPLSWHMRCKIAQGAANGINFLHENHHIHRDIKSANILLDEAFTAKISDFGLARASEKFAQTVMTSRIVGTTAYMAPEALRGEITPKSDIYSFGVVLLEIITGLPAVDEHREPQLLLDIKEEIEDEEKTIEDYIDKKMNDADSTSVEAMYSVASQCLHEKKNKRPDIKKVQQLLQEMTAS
Sequence of UniProt Q9UL54 (whole entry, looked up): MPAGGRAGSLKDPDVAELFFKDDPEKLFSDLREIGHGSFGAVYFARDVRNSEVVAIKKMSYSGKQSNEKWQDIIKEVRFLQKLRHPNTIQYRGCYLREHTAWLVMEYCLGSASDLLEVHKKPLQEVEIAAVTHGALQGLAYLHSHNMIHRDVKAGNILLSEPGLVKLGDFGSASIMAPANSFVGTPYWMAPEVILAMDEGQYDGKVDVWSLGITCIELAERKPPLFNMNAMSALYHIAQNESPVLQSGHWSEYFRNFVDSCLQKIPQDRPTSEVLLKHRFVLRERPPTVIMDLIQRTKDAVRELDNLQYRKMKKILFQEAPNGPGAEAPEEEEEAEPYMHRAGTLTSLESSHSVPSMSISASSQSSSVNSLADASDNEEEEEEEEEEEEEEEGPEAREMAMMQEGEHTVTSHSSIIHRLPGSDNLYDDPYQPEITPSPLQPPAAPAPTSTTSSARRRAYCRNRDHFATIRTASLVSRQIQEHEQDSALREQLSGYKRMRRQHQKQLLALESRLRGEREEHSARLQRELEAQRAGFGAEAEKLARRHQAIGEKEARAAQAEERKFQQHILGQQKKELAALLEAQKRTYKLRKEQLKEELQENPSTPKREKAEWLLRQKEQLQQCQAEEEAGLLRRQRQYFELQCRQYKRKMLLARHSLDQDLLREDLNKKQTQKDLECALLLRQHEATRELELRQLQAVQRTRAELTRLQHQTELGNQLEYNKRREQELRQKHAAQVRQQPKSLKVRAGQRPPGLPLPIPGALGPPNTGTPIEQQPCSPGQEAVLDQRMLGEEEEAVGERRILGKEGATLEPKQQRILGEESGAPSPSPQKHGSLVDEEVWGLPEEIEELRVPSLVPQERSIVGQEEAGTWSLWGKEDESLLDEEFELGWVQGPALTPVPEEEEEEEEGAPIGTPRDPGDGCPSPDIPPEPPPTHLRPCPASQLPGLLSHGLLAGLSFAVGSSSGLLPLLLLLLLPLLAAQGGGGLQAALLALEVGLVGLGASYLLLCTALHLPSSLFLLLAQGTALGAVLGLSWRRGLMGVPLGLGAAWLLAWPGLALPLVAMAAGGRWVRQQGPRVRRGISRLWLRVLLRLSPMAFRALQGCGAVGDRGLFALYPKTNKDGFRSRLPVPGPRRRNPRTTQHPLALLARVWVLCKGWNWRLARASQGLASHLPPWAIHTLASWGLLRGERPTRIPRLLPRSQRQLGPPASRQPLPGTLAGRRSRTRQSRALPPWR
Sequence of UniProt P53778 (whole entry, looked up): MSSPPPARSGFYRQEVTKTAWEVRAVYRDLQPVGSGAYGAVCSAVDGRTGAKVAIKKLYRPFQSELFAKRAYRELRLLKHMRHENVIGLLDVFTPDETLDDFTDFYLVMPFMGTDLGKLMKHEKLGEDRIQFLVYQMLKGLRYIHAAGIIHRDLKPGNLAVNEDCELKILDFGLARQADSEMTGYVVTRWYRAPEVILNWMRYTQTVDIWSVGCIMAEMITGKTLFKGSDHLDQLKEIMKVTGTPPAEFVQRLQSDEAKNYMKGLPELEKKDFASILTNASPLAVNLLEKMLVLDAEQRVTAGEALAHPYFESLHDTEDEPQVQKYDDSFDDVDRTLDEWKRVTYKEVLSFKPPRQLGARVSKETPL
Sequence of UniProt Q8TD08 (whole entry, looked up): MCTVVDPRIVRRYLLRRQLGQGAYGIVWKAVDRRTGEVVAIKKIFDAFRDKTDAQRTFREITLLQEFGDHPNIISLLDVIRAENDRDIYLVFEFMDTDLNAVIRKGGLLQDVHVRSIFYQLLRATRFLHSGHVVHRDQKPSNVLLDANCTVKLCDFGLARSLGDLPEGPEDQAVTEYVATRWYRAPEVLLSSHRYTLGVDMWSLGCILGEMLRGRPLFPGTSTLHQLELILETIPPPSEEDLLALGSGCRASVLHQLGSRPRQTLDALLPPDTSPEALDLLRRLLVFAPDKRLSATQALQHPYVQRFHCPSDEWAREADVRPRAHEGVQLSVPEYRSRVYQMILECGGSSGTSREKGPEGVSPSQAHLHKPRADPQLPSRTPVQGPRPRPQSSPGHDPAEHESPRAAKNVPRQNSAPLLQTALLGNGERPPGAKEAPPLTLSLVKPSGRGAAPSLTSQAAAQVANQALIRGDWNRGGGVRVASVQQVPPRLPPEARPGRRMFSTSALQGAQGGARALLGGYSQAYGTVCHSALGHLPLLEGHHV
Sequence of UniProt Q13164 (whole entry, looked up): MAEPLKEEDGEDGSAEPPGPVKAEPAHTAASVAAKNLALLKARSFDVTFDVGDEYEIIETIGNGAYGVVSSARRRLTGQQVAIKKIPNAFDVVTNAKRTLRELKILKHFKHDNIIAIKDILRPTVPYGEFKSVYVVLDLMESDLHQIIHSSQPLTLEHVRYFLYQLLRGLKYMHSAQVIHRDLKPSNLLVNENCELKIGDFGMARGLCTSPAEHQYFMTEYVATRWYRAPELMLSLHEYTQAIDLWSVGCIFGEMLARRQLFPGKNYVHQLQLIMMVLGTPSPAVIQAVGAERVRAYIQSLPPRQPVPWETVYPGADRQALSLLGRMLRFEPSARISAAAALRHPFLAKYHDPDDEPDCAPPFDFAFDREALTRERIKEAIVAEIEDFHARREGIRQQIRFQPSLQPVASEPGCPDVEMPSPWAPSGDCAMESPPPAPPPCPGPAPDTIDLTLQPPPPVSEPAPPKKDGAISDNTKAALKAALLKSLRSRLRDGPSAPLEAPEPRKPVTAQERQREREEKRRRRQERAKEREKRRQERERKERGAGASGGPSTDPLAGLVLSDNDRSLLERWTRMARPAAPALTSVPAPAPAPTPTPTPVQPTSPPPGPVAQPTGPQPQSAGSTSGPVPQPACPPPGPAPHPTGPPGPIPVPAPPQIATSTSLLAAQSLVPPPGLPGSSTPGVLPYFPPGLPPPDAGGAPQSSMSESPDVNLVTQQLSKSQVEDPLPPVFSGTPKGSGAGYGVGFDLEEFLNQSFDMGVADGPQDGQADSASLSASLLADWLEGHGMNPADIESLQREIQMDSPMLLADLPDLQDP
Sequence of UniProt P04629 (whole entry, looked up): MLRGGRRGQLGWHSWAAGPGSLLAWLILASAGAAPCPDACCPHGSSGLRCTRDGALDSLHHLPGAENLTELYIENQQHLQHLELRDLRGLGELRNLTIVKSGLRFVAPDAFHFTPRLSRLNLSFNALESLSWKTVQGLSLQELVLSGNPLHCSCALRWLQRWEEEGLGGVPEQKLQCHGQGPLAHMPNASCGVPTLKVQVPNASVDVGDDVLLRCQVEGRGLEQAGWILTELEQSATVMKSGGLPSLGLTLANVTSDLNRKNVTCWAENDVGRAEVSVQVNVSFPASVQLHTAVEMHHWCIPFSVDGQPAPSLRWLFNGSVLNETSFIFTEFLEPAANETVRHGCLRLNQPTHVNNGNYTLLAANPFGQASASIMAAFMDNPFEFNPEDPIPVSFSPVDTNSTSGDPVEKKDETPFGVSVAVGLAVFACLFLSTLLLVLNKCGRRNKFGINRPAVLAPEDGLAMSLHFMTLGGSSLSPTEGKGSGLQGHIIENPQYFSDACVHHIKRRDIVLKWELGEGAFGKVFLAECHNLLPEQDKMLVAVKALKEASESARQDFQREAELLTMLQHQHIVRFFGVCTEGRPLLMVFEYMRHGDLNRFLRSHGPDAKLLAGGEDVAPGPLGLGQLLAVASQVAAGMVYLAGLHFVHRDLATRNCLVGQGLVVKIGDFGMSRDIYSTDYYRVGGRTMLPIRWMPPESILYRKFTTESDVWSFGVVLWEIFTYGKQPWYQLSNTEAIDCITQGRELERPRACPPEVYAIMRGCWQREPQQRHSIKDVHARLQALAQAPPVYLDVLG

Set 1
Target: Beta-1 adrenergic receptor (ADRB1, Homo sapiens, UniProt P08588)
Sequence of UniProt P08588 (whole entry, looked up): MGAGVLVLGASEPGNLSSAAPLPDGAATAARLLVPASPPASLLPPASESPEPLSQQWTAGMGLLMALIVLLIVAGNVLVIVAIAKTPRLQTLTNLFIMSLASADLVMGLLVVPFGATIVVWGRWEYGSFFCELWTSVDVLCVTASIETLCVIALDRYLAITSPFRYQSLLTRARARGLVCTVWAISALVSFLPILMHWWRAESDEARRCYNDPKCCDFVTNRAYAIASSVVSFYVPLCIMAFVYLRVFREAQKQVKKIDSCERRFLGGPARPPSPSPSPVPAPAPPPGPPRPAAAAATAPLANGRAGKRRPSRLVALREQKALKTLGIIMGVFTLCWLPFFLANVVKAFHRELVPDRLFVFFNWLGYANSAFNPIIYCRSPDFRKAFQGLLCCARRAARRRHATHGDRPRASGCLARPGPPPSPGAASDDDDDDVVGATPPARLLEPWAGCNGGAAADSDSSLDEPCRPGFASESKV
Mode: antagonist
SMILES	IC50 [µM]
Cc1noc2c(-c3cn[nH]c3)cc(-c3ccccc3)nc12	≥ 100
CC(C)c1ccc(NC(=O)c2cc3c(nc2O)CC(C)(C)CC3=O)cc1	≥ 100
Cc1noc(C)c1-c1cnc(Nc2cccc(C(F)(F)F)c2)c2c1CCO2	≥ 100

Set 2
Host: mouse
Medium: microsomes or S9
Tested at: 2 µM
Time: 0.5 h
SMILES	remaining compound [%]
O=C1CN(c2nc(C3CCCC3)nc3c2CCOCC3)CCN1	84
O=C(Nn1cnc2ccccc21)c1nc(-c2ccc(F)cc2)n2c1CCCCC2	0.0779
COc1ccc(CCN(Cc2nc(-c3ccccc3)no2)Cc2nc(-c3ccccc3)no2)cc1OC	1.16

Set 3
Target: Hepatocyte nuclear factor 3-alpha (Foxa1, Mus musculus, UniProt P35582, residues 1-468, full length assumed)
Technique: EMSA with sequencing
Molecule type: double-stranded DNA, one strand shown
Medium: in vitro
Tested at: 10 and 20 nM
Notes: whole designed probe, mean of two concentrations, ends assumed
Reference: negative control set to 0
Reading: higher = stronger binding
Shared flanks, not repeated: GTGAGCGGTGCCCATTGATGGGGAAC … TTTCACTGGGATCGTGGGGAC
Construct (chain): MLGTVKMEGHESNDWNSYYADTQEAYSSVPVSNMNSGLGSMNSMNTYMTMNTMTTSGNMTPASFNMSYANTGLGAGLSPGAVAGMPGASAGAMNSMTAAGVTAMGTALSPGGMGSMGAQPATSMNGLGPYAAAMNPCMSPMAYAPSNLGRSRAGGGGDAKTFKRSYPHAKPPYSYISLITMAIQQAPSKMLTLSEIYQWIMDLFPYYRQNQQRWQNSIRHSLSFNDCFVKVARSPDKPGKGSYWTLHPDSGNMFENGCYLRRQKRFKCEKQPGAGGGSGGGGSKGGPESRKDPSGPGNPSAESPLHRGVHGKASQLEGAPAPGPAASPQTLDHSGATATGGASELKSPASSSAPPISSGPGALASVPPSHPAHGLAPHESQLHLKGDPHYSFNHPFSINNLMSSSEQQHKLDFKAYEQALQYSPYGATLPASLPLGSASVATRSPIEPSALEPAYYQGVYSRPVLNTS
Sequence	normalised bound fraction [ratio]
CAAGTTTGTGGTCCAGGAGCAACAGGTTATGCCATACAGCCTAGGTGTGTAGTAGGCTACACACCGTCTATGTTTGTGTTGTACACTCTTTGTGCAAACATTGTCCATGACTCATTGATGAAATCTTCTCAGAACATACCCCTGTTGTTAAGCGATACATGACTGTACTTTTTTTAAAAAGTCCAAGGATATA	0.43
TCTAAAATTCCAAAAAGTTTGCTTTTGCCCTTTTATAATACCTATCTCTAGCTTCTCTCTTTCTGGAGTAACTGCTGATTTATTTTCTGCCAATATTTGCTTTATTTTCTTGAAAGATATAGAAATGCAATCATACAGTAAGTGCTCCTATTTTCCTGTTTTCTTTCATTCAACATAATTATTTTAAGACTTA	0.258
ATCTTCCCCCTCTTCCTTGCCCCACCAGCTCACCTTCCCGGGTTGTTTACTTTGAGCAAAGTAAACAAAGCCGGCATTCGTTAACCCTCTTCTGGCGCAAACTGCTGTTTGCTCTGGATGAATCATGGTCCTTTGGCGACGCCAGGCTCCGGGAGAGCAAAGCACCGTGTCAGGGCCATGATCCGGGGTGGCC	0.524
ATCTTCCCCCTCTTCCTTGCCCCACCAGCTCACCTTCCCGGGTATCTGCAAATAAGTATTTATTTTCAAGCCGGCATTCGTTAACCCTCTTCACGCGCATACTGCCAGAGCAAACAGATGAATCATGGTCCTTTGGCGACGCCAGGCTCCGGGAGAGCAAAGCACCGTGTCAGGGCCATGATCCGGGGTGGCC	0.245
AAAGAAAGCAGCTCACTGGGTGAAGGACCTTGAGAAAGAGATGAACATTTCCTCTCTTGAGACACAGGACAAACAAGGTCACGCCTGAGCTCGGCAAACAAGGACTTCGGTGCCTGCCTACGGCGCCATTGCGCCCTCTAGTGGCTGCTGAGGAACCGCTGTCCAGCCCGAAGCTCACAGAGCCCCGTTCAGG	0.1
ATTTGATACACGAAGAAAATCCTGGATTTGCCTCTAAGAGTCTCCCACATTATAACAATAATATCAACAATGATACCAGTCTTGCCTTTCCAGTGTAAACATGAACAGACTCTTAAATATTAACTAAGTAGAACACAAGCTAGCTTTTTAATATTTTTATTTATTTAAAAAATGAAAAAGGAAATTATATAGA	0.443
TCAGGTTGCAGTGAGCTCTGATCGTGCCACTGCACTCCAGCCTGTGTGACAGAGCAAGGGCCTGTCTCTAAAAACAAAACAAAACAAAGCAAAACAAACATGAGAAGTCCAGATTCATACCTTGCAAAGAGGTTTCATTCGGCAGCAAGTTGAAATTATCTACTGGTTTGTACATGAGCTAGCACTTCCTCTT	0.468
AACTAGTTTAACAACAAAAAAATTTTACATTTATTTCCATTTTTATGATTCAACTAGTTAATAGTTTTTCAAAAATATTACTATATCTTTCAAAGTAAACATAAAAATAATGAAATTTATGTCTGAGATATAAAATCTCAATTGGCTTTATAATAAATATATGCTTATTAATACATGTGGTAGATGTATGCAT	0.443

Set 4
SMILES: CS(=O)(=O)NCC[C@H](NC(=O)c1cncc2c1cnn2-c1ccc(F)cc1)c1ccnc(S(C)(=O)=O)c1
Read-out: cell-free assay
Technique: competition with immobilised ligand
Tested at: 1 µM
target	remaining binding
G protein-coupled receptor kinase 4 (GRK4, Homo sapiens, UniProt P32298)	100%
Phosphatidylinositol 4,5-bisphosphate 3-kinase catalytic subunit gamma isoform (PIK3CG, Homo sapiens, UniProt P48736)	80%
Ribosomal protein S6 kinase beta-1 (RPS6KB1, Homo sapiens, UniProt P23443)	86%
Mitogen-activated protein kinase 15 (MAPK15, Homo sapiens, UniProt Q8TD08)	100%
Hormonally up-regulated neu tumor-associated kinase (HUNK, Homo sapiens, UniProt P57058)	100%
Activin receptor type-1 (ACVR1, Homo sapiens, UniProt Q04771)	100%
Epidermal growth factor receptor (EGFR, Homo sapiens, UniProt P00533)	84%
Ephrin type-B receptor 4 (EPHB4, Homo sapiens, UniProt P54760)	100%
Mitogen-activated protein kinase 12 (MAPK12, Homo sapiens, UniProt P53778)	100%
Interleukin-1 receptor-associated kinase 4 (IRAK4, Homo sapiens, UniProt Q9NWZ3)	100%
G protein-coupled receptor kinase 3 (GRK3, Homo sapiens, UniProt P35626)	100%
Serine/threonine-protein kinase TAO2 (TAOK2, Homo sapiens, UniProt Q9UL54)	85%
Cyclin-dependent kinase 8 (CDK8, Homo sapiens, UniProt P49336)	100%
High affinity nerve growth factor receptor (NTRK1, Homo sapiens, UniProt P04629)	97%
Mitogen-activated protein kinase 7 (MAPK7, Homo sapiens, UniProt Q13164)	100%

Set 5
Cell line: mouse MPNST tumor cells
Technique: high-content immunofluorescence imaging
Item: nuclear SOX9
Tested at: 10 µM
Time: 12 h
Notes: mean of 2 replicates
Reference: DMSO control
Reading: higher = more nuclear SOX9
Structure (SMILES)	nuclear SOX9 intensity
Cc1ncc([N+](=O)[O-])n1CC(O)CCl (centres unmarked)	105 % of DMSO
Cc1nn(-c2ccccc2)c(C)c1C=NN1CCN(Cc2ccccc2)CC1	100 % of DMSO
CC(C)[N+](C)(CCOC(=O)C1c2ccccc2Oc2ccccc21)C(C)C	98.1 % of DMSO

Other studies, line by line
Organism: Sarcocystis neurona
Read-out: parasite growth
Tested at: 10 µM
Time: 96 h
Compound	inhibition [%]
Cn1c(=O)c2[nH]cnc2n(C)c1=O	-7
CC(C(=O)O)c1ccc(CC2CCCC2=O)cc1 (centres unmarked)	-12.5
CCOC(=O)[C@H](CCc1ccccc1)N[C@@H](C)C(=O)N1CCC[C@H]1C(=O)O	-7.5

For quick reference, copied from above (set 2):
SMILES	remaining compound [%]
COc1ccc(CCN(Cc2nc(-c3ccccc3)no2)Cc2nc(-c3ccccc3)no2)cc1OC	1.16
O=C(Nn1cnc2ccccc21)c1nc(-c2ccc(F)cc2)n2c1CCCCC2	0.0779
O=C1CN(c2nc(C3CCCC3)nc3c2CCOCC3)CCN1	84
